Measurements of several laboratories.
Protocols differ between the studies behind these lines.
Target: Mitogen-activated protein kinase 9 (MAPK9, Homo sapiens, UniProt P45984)
Sequence of UniProt P45984 (whole entry, looked up): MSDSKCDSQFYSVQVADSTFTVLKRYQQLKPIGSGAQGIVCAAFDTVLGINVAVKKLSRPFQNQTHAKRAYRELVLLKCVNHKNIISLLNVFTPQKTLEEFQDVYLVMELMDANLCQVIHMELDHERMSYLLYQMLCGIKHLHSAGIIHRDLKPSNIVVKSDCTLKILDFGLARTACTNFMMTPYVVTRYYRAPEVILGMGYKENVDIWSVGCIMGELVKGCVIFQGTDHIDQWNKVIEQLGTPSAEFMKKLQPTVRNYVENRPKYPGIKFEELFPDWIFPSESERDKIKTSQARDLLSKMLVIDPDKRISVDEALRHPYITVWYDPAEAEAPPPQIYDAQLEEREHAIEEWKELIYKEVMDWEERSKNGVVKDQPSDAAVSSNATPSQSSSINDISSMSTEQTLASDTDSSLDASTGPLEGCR

| Compound | assay | test system | setting | how to read | quantity | result |
| --- | --- | --- | --- | --- | --- | --- |
| CNc1ncc2c(/C=C/C(=O)N3CCC(OC)CC3)nn(Cc3cccc(C(F)(F)F)c3)c2n1 | kinase activity, inhibitor | – | 1 µM | baseline: untreated control | remaining activity | 91% |
| O=C(NC1CCC1)c1ccc2nc(-c3cccc(NS(=O)(=O)NCCN4CCCCC4)c3)cn2c1 | enzyme activity | – | 10 µM | – | remaining activity | 69% |
| CCN(CC)c1ccc(C2=NNC(=O)CC2C)cc1[N+](=O)[O-] (stereo not drawn) | enzyme activity, inhibitor | – | 10 µM | baseline: vehicle | remaining activity | 91% |
| Cc1cc(Nc2cc(N3CCN(C)CC3)nc(Sc3ccc(NC(=O)C4CC4)cc3)n2)[nH]n1 | kinase activity, KinaseProfiler | – | 0.03 µM, species human | baseline: control | remaining activity | 105% |
| C=CC(=O)N1CCC(C(=O)NCC(=O)N2CCN(c3nc(-c4cnc(N)nc4C(F)F)nc(N4CCOCC4)n3)CC2)CC1 | KINOMEscan | – | 1 µM | – | remaining binding | 89% |
| CCCOc1ccc(OC)c(F)c1C(=O)c1ccc(C(=O)N[C@@H]2CNC[C@H]2NC(=O)c2ccc3[nH]ncc3c2)cc1 | enzyme activity | – | 10 µM | – | remaining activity | 92% |
| C=CC(=O)N1CCC(COCC(=O)N2CCN(c3nc(-c4cnc(N)nc4C(F)F)nc(N4CCOC[C@@H]4C)n3)CC2)CC1 | KINOMEscan | – | 1 µM | baseline: DMSO control | remaining binding | 78% |
| CC[C@@H]1[C@H](F)C(=O)N[C@@H]1COc1nccc2cc(C(N)=O)c(OC)cc12 | ATP probe binding, KiNativ profiling, item: Lys1 probe site | THP-1 cell lysate | 0.04 mM | – | inhibition | -18.4% |
| Cc1cc(NC(=O)c2cccc(NC(=O)/C=C/CN(C)C)c2)ccc1Nc1nccc(-c2cccnc2)n1 | enzyme activity, inhibitor | – | 44.44 µM, unit not given | baseline: vehicle | remaining activity | 0.00665 |

A few entries again:
| Compound | assay | test system | setting | how to read | quantity | result |
| --- | --- | --- | --- | --- | --- | --- |
| Cc1cc(NC(=O)c2cccc(NC(=O)/C=C/CN(C)C)c2)ccc1Nc1nccc(-c2cccnc2)n1 | enzyme activity, inhibitor | – | 44.44 µM, unit not given | baseline: vehicle | remaining activity | 0.00665 |
